Values quoted from earlier work as cited in several papers.
Protocols differ between the studies behind these lines.

| SMILES | tested on | test | test system | setting | measurement | value |
| --- | --- | --- | --- | --- | --- | --- |
| O=C(/C=C/c1ccc(O)c(O)c1)OCCc1ccccc1 | – | ABTS radical scavenging | – | – | IC50 | 9.8 µg/mL |
| CN1CC[C@]23c4c5ccc(O)c4O[C@H]2[C@@H](O)C=C[C@@]3(O)[C@H]1C5 | – | antinociception | mouse | subcutaneous | ED50 | 2.9 mg/kg |
| CC1Oc2ccccc2C=C1C=C1SC(=O)NC1=O (stereo not shown) | Mycobacterium tuberculosis | – | H37Rv | – | MIC | 0.36 µM |
| Cn1cc2cc(C(F)(F)c3nnc4ccc(-c5cnn(C6CC6)c5)nn34)c(F)cc2n1 | – | – | human, MET-altered NSCLC patients | dose not given, phase I | objective response rate | 30.5% |
| CO[C@H]1/C=C/O[C@@]2(C)Oc3c(C)c(O)c4c(O)c(c(/C=N/N5CCN(C)CC5)c(O)c4c3C2=O)NC(=O)/C(C)=C\C=C\[C@H](C)[C@H](O)[C@@H](C)[C@@H](O)[C@@H](C)[C@H](OC(C)=O)[C@@H]1C | Mycobacterium tuberculosis | – | H37Ra | – | MIC | 0.06 µg/mL |
| CCCCCc1cc(O)cc(O)c1 | – | DMPD radical scavenging | – | – | IC50 | 19.2 µg/mL |
| CO/N=C(\C(=O)N[C@@H]1C(=O)N2C(C(=O)O)=C(COC(C)=O)CS[C@H]12)c1csc(N)n1 | Mycobacterium tuberculosis | – | H37Ra | – | MIC | 64 µg/mL |
| N#C[Se]CCOc1ccc(Oc2ccccc2)cc1 | Trypanosoma cruzi | parasite growth | intracellular amastigotes | – | EC50 | 109 nM |
| CC1(C)NC(=O)N(c2ccc(F)c(C(F)(F)F)c2)C1=O | Schistosoma mansoni | – | adult worms, mouse | oral, 25 mg/kg single dose | worm burden reduction | 83% |
| CN1CC[C@]23c4c5ccc(O)c4O[C@H]2[C@@H](O)C=C[C@@]3(O)[C@H]1C5 | – | analgesia, Haffner tail-clip test | mouse | subcutaneous | ED50 | 13 mg/kg |
| CN[C@H](CC(C)C)C(=O)N[C@H]1C(=O)N[C@@H](CC(N)=O)C(=O)N[C@H]2C(=O)N[C@H]3C(=O)N[C@H](C(=O)N[C@H](C(=O)O)c4cc(O)cc(O)c4-c4cc3ccc4O)[C@H](O)c3ccc(c(Cl)c3)Oc3cc2cc(c3O[C@@H]2O[C@H](CO)[C@@H](O)[C@H](O)[C@H]2O[C@H]2C[C@](C)(N)[C@H](O)[C@H](C)O2)Oc2ccc(cc2Cl)[C@H]1O | Mycobacterium tuberculosis | – | H37Ra | – | MIC | 65 µg/mL |
| O=c1oc2cc(O)ccc2c2oc3cc(O)ccc3c12 | – | ABTS radical scavenging | – | – | IC50 | 12.2 µg/mL |
| N/C(CC(O)c1cc2c(F)cc(F)cc2c2cc(C(F)(F)F)ccc12)=N\c1ccc(F)cc1 (stereo not shown) | Plasmodium falciparum | parasite growth | Dd2 Pfcarl I1139K (GNF156-resistant) | – | IC50 | 7 nM |
| N#CC(=Cc1ccc(O)cc1)C(=O)O | human neutrophils | anion exchange, inhibitor | – | added: Cl- | Ki | 290000 nM |
| CC1(C)NC(=O)N(c2ccc(F)c(C(F)(F)F)c2)C1=O | Schistosoma mansoni | – | juvenile, infected mice | oral, 100 mg/kg single dose | worm burden reduction | 64% |
| COc1ccc2c3c1O[C@H]1[C@@H](O)C=C[C@H]4[C@@H](C2)N(C)CC[C@@]341 | – | analgesia, Haffner tail-clip test | mouse | subcutaneous | ED50 | 25 mg/kg |
| COc1ccc2c(c1O)-c1c(O)c(OC)cc3c1[C@H](C2)[N+](C)(C)CC3 | – | DPPH radical scavenging | – | – | IC50 | 15.2 µg/mL |
| O=C1N[C@@H]2CCCC[C@H]2N[C@@H]1c1c[nH]c2ncccc12 | MRC-5 fibroblasts | cytotoxicity | – | – | IC50 | > 100000 nM |
| NC(=O)CC[C@H](NC(=O)[C@@H]1CC[C@@H]2CCN(C(=O)CCCCCC#Cc3cccc4c3CN(C3CCC(=O)NC3=O)C4=O)C[C@H](NC(=O)c3cc4cc(C(F)(F)P(=O)(O)O)ccc4[nH]3)C(=O)N21)C(=O)NC(c1ccccc1)c1ccccc1 (stereo partly shown) | – | – | mouse, SU-DHL-1 xenograft | weekly dosing | dose for complete regression | 100 mg/kg |
| CC(=O)O[C@H]1C[C@@]2(C)[C@@H](C[C@@H](O)[C@H]3[C@@]4(C)CC[C@@H](O)[C@@H](C)[C@@H]4CC[C@@]32C)/C1=C(\CCC=C(C)C)C(=O)O | Mycobacterium tuberculosis | – | H37Ra | – | MIC | 3 µg/mL |
| CN1CC[C@]23c4c5ccc(O)c4O[C@H]2[C@@H](O)CC[C@@]3(O)[C@H]1C5 | – | antinociception | mouse | subcutaneous | ED50 | 1.1 mg/kg |
| CC(=O)[C@H]1CC[C@H]2[C@@H]3CC[C@H]4C[C@@H](O)CC[C@]4(C)[C@H]3CC[C@]12C | – | – | male NIH Swiss mice | dose not given, pentylenetetrazol seizure model | seizure protection | inactive |

Repeated from above:
| SMILES | tested on | test | test system | setting | measurement | value |
| --- | --- | --- | --- | --- | --- | --- |
| CN[C@H](CC(C)C)C(=O)N[C@H]1C(=O)N[C@@H](CC(N)=O)C(=O)N[C@H]2C(=O)N[C@H]3C(=O)N[C@H](C(=O)N[C@H](C(=O)O)c4cc(O)cc(O)c4-c4cc3ccc4O)[C@H](O)c3ccc(c(Cl)c3)Oc3cc2cc(c3O[C@@H]2O[C@H](CO)[C@@H](O)[C@H](O)[C@H]2O[C@H]2C[C@](C)(N)[C@H](O)[C@H](C)O2)Oc2ccc(cc2Cl)[C@H]1O | Mycobacterium tuberculosis | – | H37Ra | – | MIC | 65 µg/mL |
| COc1ccc2c3c1O[C@H]1[C@@H](O)C=C[C@H]4[C@@H](C2)N(C)CC[C@@]341 | – | analgesia, Haffner tail-clip test | mouse | subcutaneous | ED50 | 25 mg/kg |
